Measured values pooled from the literature.
Each numbered part is a random draw from the data of one study; scales do not carry over between parts. Positions count from the first letter of the parent shown.
Chain of UniProt Q8N752 (whole entry, looked up): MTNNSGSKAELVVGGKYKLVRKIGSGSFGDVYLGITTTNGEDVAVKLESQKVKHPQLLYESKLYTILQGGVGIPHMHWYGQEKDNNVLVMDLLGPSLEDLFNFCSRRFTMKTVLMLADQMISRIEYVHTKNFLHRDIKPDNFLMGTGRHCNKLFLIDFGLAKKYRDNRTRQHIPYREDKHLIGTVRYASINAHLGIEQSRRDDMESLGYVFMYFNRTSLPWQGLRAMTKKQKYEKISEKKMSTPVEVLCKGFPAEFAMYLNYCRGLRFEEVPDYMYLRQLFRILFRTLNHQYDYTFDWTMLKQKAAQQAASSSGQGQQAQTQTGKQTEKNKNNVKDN
Chain of UniProt Q52WX2 (whole entry, looked up): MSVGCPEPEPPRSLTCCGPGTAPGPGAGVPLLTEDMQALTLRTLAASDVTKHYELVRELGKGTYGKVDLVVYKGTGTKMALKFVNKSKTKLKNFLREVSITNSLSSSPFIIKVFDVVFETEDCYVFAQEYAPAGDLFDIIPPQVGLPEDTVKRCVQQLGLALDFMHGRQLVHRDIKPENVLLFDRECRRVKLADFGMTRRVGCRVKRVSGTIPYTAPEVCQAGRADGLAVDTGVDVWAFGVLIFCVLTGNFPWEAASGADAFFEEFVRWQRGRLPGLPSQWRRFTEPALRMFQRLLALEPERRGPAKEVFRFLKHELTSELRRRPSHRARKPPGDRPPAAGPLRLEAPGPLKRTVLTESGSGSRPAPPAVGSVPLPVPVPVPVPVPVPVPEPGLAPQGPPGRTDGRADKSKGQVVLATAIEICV
Chain of UniProt O75716 (whole entry, looked up): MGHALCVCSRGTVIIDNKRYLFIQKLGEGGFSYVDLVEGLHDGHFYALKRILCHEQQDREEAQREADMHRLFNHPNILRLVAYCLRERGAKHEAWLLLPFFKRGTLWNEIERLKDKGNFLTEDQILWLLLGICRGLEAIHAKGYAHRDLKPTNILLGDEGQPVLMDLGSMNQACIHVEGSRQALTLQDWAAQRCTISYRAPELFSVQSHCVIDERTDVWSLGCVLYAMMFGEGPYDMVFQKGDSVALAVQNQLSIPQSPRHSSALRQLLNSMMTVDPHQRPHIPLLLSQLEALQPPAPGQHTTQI
Chain of UniProt Q6P3R8 (whole entry, looked up): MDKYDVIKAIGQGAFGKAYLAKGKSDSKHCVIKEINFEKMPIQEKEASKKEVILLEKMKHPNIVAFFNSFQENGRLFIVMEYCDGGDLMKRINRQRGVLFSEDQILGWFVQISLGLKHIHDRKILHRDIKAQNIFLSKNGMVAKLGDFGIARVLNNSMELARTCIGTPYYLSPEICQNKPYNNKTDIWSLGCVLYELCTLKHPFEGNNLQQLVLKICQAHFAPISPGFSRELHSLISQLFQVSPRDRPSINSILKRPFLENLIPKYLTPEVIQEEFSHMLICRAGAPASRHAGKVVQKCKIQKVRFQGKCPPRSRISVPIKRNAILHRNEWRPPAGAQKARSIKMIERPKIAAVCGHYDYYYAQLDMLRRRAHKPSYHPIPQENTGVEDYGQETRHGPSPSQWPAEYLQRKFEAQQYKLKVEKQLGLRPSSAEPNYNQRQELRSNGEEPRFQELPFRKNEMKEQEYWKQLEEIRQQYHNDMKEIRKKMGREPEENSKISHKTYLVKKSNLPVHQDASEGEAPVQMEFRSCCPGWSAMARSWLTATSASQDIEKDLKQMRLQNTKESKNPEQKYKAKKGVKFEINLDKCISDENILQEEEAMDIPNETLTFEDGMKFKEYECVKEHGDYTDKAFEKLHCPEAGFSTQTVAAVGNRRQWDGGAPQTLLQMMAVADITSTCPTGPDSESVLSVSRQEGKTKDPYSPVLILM

Set 1
Target: Microphthalmia-associated transcription factor, full length (MITF, Homo sapiens, UniProt O75030-10, residues 1-413)
Method: protein-binding microarray
Form: hairpin DNA
Matrix: in vitro
Tested at: not given
Setting: whole hairpin DNA, median over replicate spots
Baseline: not given
Reading: higher = stronger binding
| Oligonucleotide | median fluorescence [a.u.] |
| --- | --- |
| CACTTAGCGCGTGATTTTGGTCCTCCAAAATCACGCGCTAAGTGACACTC (5mC at 8) | 14200 |
| CACTTAGCACGTGAGTTTGGTCCTCCAAACTCACGTGCTAAGTGACACTC | 21700 |
| GAGGCCTAACACGTGCTGCCTCCTGGCAGCACGTGTTAGGCCTCACACTC | 19100 |
| GAGGCCTAGCACGTGCTGCCTCCTGGCAGCACGTGCTAGGCCTCACACTC (5mC at 12) | 11700 |
| CACTTGGCACGTGATTTTGGTCCTCCAAAATCACGTGCCAAGTGACACTC | 27300 |
| CACTTACCACGTGATTTTGGTCCTCCAAAATCACGTGGTAAGTGACACTC (5mC at 7) | 28700 |
| CACTGAGCACGTGATTTTGGTCCTCCAAAATCACGTGCTCAGTGACACTC (5mC at 40) | 27200 |
| CACTTAGCACCTGATTTTGGTCCTCCAAAATCAGGTGCTAAGTGACACTC | 10900 |

Set 2
Target: CCND2, cyclin fold, Cln2 fusion (human)
Method: yeast growth competition, sequencing
Matrix: yeast
Setting: weak parent motif
Baseline: not given
Reading: higher = stronger binding
Parent: CDKN1A docking peptide (human); SKACRRLFGPVDS; partner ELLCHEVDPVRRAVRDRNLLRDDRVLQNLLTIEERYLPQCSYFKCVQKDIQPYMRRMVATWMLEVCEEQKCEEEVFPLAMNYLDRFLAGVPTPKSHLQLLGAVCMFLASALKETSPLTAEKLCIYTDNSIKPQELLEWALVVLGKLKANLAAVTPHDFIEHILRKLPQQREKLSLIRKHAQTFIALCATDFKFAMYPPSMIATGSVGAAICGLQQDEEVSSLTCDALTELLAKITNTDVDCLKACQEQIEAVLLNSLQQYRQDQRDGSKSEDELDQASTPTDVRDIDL
| Substitution | normalised enrichment score |
| --- | --- |
| C4V | 0.387 |
| D12H | 0.107 |
| R6G | -0.111 |
| G9T | 0.34 |
| D12K | -0.302 |
| K2W | -0.189 |
| K2D | 0.398 |
| D12R | 0.0442 |

Set 3
Target: MAP/microtubule affinity-regulating kinase 4 (MARK4, Homo sapiens, UniProt Q96L34)
Chain of UniProt Q96L34 (whole entry, looked up): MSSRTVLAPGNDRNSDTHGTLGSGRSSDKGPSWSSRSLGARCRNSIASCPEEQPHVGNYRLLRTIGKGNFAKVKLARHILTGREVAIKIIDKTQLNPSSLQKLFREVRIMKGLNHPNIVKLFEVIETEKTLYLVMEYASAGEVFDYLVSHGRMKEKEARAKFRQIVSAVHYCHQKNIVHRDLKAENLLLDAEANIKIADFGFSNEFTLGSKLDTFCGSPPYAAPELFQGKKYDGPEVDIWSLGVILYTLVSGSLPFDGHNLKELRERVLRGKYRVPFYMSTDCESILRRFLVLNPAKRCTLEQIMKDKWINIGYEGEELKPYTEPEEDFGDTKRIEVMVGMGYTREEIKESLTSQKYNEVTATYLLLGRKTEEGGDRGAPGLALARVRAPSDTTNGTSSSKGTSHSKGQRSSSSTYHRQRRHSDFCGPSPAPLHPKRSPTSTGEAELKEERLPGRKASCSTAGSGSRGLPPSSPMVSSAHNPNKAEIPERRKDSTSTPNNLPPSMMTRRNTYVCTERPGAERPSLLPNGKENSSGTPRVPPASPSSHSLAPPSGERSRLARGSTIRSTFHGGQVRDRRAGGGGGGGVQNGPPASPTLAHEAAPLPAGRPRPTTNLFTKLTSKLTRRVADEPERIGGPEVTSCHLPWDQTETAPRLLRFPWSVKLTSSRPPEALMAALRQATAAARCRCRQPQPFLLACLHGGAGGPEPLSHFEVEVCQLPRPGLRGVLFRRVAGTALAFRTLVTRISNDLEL
Observed: enzyme activity
Action: inhibitor
Tested at: 0.5 µM
Baseline: control
| Structure (SMILES) | remaining activity |
| --- | --- |
| CN(C)c1ccc(C=C2C(=O)Nc3ccccc32)cc1 | 97% |
| Nc1[nH]nc2nc3ccccc3nc12 | 99.8% |
| CC(C)[C@H](CO)Nc1nc(Nc2cc(N)cc(Cl)c2)c2ncn(C(C)C)c2n1 | 71.2% |
| C#Cc1cccc(Nc2ncnc3cc(OCCOC)c(OCCOC)cc23)c1 | 102% |
| CNC(=O)c1cc(Oc2ccc(NC(=O)Nc3ccc(Cl)c(C(F)(F)F)c3)cc2)ccn1 | 98.1% |
| O=S(=O)(c1cccc2cnccc12)N1CCCNCC1 | 103% |
| O=C1NC(=O)C(c2cn(CCCn3ccnc3)c3ccccc23)=C1Nc1ccccc1 | 92.6% |
| NCCNc1ncc(C(N)=O)c(Nc2cccc(C(F)(F)F)c2)n1 | 87.5% |
| Cc1nc(-c2ccccc2)c(-c2ccncc2)o1 | 103% |
| N#CC(C#N)=C(N)/C(C#N)=C/c1ccc(O)cc1 | 94.3% |

Set 4
Structure (SMILES): CN(C)c1ncnc(-c2ccc3nc(Nc4cc(CN5CCN(C(=O)CC(F)(F)F)CC5)ccn4)[nH]c3c2)c1Cl
Observed: cell-free assay
Method: competition with immobilised ligand
Tested at: 1 µM
| target | remaining binding [%] |
| --- | --- |
| Epidermal growth factor receptor (EGFR, Homo sapiens, UniProt P00533, del746-750) | 100 |
| MAP/microtubule affinity-regulating kinase 4 (MARK4, Homo sapiens, UniProt Q96L34) | 100 |
| Serine/threonine-protein kinase SBK1 (SBK1, Homo sapiens, UniProt Q52WX2) | 71 |
| Serine/threonine-protein kinase Nek5 (NEK5, Homo sapiens, UniProt Q6P3R8) | 100 |
| Serine/threonine-protein kinase 16 (STK16, Homo sapiens, UniProt O75716) | 100 |
| Casein kinase I isoform alpha-like (CSNK1A1L, Homo sapiens, UniProt Q8N752) | 94 |

A few entries again (set 1):
| Oligonucleotide | median fluorescence [a.u.] |
| --- | --- |
| GAGGCCTAACACGTGCTGCCTCCTGGCAGCACGTGTTAGGCCTCACACTC | 19100 |
| GAGGCCTAGCACGTGCTGCCTCCTGGCAGCACGTGCTAGGCCTCACACTC (5mC at 12) | 11700 |
